Assay results collected from several papers.
Each numbered part is a random draw from the data of one study; scales do not carry over between parts. Positions count from the first letter of the parent shown.
UniProt Q9H2X6, sequence (whole entry, looked up): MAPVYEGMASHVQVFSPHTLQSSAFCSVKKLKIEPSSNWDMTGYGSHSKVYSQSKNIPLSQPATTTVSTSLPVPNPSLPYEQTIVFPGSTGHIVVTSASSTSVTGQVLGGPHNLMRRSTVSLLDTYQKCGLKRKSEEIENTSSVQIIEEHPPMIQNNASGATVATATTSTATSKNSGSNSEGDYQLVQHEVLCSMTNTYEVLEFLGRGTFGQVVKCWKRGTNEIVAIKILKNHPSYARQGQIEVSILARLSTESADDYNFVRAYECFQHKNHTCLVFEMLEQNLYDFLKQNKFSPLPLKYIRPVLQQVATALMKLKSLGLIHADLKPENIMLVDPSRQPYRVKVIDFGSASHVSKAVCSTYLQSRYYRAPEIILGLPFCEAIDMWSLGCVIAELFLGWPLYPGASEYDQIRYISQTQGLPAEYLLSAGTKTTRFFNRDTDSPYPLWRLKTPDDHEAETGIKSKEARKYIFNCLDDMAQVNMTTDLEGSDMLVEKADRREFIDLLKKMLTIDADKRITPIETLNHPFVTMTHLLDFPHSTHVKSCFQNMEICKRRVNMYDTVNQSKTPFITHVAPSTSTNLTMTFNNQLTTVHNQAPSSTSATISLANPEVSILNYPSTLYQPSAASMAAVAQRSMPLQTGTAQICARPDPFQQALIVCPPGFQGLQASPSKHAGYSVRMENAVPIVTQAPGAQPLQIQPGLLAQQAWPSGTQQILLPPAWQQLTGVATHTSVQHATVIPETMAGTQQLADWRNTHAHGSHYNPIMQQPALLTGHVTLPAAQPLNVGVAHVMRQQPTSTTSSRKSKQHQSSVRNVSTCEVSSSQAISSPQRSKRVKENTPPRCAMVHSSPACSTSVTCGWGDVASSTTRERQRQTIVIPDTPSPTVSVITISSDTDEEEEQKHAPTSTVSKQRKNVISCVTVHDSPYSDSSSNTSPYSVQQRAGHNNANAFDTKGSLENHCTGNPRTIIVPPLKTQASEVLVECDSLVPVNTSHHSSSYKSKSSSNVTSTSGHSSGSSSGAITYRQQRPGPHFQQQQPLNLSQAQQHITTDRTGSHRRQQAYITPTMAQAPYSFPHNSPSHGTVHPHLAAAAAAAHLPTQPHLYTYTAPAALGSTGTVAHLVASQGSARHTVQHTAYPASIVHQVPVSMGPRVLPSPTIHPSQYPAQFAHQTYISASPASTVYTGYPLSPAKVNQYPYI
UniProt O75460, sequence (whole entry, looked up): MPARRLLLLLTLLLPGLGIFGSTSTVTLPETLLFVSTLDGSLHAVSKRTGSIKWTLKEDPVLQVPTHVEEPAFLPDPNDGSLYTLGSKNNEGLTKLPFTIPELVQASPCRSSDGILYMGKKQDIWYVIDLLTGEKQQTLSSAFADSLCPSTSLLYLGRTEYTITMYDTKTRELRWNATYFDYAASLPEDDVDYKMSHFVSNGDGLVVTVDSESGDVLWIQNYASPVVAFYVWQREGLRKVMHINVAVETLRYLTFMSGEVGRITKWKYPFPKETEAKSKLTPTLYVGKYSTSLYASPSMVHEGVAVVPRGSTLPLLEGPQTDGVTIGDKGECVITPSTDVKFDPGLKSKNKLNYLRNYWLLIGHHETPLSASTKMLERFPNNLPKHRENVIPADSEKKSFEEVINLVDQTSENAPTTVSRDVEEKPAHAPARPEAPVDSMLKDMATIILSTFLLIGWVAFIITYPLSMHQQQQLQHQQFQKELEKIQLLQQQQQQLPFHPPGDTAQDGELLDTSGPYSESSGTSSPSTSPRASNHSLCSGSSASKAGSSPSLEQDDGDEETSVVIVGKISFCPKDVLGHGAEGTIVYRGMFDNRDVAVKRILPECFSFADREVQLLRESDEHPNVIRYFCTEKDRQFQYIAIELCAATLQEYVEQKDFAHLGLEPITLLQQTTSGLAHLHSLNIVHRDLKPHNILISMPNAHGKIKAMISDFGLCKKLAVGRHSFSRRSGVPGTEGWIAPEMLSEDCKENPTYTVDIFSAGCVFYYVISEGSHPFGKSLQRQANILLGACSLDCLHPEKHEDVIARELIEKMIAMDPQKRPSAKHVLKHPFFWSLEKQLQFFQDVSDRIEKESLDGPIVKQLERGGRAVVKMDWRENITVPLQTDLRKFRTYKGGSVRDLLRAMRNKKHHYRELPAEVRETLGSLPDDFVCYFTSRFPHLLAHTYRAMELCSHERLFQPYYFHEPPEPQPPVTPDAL
UniProt P53671, sequence (whole entry, looked up): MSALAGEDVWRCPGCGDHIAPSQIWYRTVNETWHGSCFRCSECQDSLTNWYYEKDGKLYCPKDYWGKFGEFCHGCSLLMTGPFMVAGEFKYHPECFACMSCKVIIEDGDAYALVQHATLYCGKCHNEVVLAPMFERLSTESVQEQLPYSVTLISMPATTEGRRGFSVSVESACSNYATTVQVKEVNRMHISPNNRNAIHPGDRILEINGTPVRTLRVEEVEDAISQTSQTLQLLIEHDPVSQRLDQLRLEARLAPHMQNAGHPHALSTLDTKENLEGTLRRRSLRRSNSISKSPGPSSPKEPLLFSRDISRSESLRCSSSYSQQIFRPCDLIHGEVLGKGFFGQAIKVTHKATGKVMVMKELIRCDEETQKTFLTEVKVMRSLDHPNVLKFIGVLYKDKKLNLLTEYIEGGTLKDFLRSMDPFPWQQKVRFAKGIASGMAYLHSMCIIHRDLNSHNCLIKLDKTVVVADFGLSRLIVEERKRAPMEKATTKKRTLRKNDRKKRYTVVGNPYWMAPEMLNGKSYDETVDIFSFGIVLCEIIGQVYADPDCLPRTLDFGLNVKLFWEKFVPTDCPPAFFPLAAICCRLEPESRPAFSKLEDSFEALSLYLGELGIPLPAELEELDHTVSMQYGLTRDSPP
UniProt P30530, sequence (whole entry, looked up): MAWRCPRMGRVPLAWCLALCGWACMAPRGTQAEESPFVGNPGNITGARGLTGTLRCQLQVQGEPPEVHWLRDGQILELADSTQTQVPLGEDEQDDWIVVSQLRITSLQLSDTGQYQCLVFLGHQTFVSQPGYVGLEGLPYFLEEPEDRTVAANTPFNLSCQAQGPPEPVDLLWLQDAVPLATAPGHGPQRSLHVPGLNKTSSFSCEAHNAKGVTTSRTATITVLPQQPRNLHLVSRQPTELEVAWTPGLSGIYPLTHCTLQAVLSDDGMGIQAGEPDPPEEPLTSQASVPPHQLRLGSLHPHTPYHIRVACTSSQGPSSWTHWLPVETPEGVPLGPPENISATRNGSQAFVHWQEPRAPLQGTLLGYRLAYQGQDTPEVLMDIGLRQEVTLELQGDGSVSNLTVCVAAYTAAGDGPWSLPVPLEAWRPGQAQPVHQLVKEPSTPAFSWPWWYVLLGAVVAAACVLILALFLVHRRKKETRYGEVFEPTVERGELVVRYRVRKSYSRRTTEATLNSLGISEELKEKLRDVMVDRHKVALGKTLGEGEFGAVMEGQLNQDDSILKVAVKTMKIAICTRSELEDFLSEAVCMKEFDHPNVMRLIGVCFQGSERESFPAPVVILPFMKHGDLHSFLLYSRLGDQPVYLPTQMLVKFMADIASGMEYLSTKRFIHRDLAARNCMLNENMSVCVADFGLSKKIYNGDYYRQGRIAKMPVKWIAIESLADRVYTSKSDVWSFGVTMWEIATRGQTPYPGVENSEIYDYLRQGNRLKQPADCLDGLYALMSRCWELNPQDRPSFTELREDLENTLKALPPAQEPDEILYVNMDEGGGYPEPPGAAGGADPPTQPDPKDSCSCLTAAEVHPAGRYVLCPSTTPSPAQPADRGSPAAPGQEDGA
UniProt O00238, sequence (whole entry, looked up): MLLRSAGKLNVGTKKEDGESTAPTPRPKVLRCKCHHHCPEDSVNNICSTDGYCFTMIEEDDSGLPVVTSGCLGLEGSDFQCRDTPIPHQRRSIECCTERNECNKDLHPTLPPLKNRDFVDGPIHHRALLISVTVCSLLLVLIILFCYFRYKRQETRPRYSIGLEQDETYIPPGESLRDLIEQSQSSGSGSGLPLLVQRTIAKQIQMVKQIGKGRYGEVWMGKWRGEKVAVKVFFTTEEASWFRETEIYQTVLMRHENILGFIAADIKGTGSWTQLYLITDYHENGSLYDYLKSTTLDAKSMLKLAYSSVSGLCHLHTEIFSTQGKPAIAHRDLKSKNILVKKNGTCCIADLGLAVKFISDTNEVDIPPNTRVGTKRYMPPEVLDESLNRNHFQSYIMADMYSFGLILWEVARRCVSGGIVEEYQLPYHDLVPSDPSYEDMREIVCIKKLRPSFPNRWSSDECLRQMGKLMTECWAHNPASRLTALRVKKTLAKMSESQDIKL
UniProt P49841, sequence (whole entry, looked up): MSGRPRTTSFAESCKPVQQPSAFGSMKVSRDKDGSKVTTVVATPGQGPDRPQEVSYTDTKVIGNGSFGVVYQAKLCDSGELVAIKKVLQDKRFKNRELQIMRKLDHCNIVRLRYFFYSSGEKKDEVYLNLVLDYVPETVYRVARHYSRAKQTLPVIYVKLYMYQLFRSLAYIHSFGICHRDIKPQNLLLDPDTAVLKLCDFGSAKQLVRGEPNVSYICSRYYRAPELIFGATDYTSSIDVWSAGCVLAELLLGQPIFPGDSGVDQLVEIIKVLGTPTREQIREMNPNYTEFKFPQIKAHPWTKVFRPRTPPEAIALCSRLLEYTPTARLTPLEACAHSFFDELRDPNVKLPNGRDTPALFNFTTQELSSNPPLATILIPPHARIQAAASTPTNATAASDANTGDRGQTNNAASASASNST

Study 1 — read-out: cell-free assay; technique: competition with immobilised ligand; concentration: 1 µM
SMILES: CC(=O)N1CCC(c2ccc(C(=O)NC(=N)N)cc2C(F)(F)F)CC1
| target | remaining binding |
| --- | --- |
| Ribosomal protein S6 kinase alpha-6, C-terminal kinase domain (RPS6KA6, Homo sapiens, UniProt Q9UK32) | 100% |
| FLT3 (Homo sapiens, UniProt P36888, D835H) | 96% |
| MAP3K19 (Homo sapiens, UniProt Q56UN5) | 100% |
| LIM domain kinase 2 (LIMK2, Homo sapiens, UniProt P53671) | 91% |
| BMPR1B (Homo sapiens, UniProt O00238) | 100% |
| MET (Homo sapiens, UniProt P08581, M1250T) | 100% |
| EGFR (Homo sapiens, UniProt P00533, del746-750) | 100% |
| ERN1 (Homo sapiens, UniProt O75460) | 100% |
| MAP3K6 (Homo sapiens, UniProt O95382) | 86% |
| MAP3K1 (Homo sapiens, UniProt Q13233) | 96% |
| MKNK2 (Homo sapiens, UniProt Q9HBH9) | 100% |
| ACVR1B (Homo sapiens, UniProt P36896) | 93% |
| GSK3B (Homo sapiens, UniProt P49841) | 85% |
| Non-receptor tyrosine-protein kinase TYK2, JH1 (TYK2, Homo sapiens, UniProt P29597) | 100% |
| MET (Homo sapiens, UniProt P08581, Y1235D) | 100% |
| EGFR (Homo sapiens, UniProt P00533, T790M) | 100% |
| HASPIN (Homo sapiens, UniProt Q8TF76) | 100% |

Study 2 — technique: RNA Bind-n-Seq; form: RNA; medium: in vitro; concentration: 365 nM; baseline: no-protein control; reading: higher = stronger binding
Target: RNA binding protein fox-1 homolog 2, RRM domain, GST-SBP tag (RBFOX2, Homo sapiens, UniProt O43251-10, residues 100-194)
Setting: natural RNA segment, single round, ends assumed
Residues (chain): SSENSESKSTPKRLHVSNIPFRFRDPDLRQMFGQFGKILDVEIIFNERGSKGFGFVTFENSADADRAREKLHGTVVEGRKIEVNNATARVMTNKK
| Sequence | RBNS enrichment (R) |
| --- | --- |
| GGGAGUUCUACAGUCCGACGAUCUGUCUCGUGUGACAGAUUGCUUCAUUUAUGUUUCUACAUAGUAAGGUGACUGCCAAAUAAUAUUUGAAGUCAUCUGUCUCUUUGUAAAUUAUUUUAUAUGACCUAUAAAUUGGAAUUCUCGGGUGCCAA | 0.352 |
| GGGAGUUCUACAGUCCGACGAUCUGAGCCCCUUACAGAUAAGCACCGGUGUCUCUUUGGUGCACCUUGCCUUCAGAUGCUCCUGGUGGUCAGCUCAACUAGCAAGACCCUAGUCCCCUGUUCCAAAGCCAUCUUGGAAUUCUCGGGUGCCAA | 0.25 |
| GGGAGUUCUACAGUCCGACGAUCGCAUUACCUGCCAGCGAGUCAAGGUAGGGGAUCCAGCAAACGGUUUUGGGAAUUCAGACUGUGGAAACAUCGGACUUCCCUUUGCCCUUCCUCAACUUAGUGGCAAAGCCUGGAAUUCUCGGGUGCCAA | 0.546 |
| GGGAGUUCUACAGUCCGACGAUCCCUUUCUUCACACUCACAUUUACCAAUGACUCUGCUCCGUUUUUGGAGCAGACUGUUUUAAGUUGCUCAGGAGCCUGAUGGAACCAUGAACCGAGACUCUUCUCUGUUUCUGGAAUUCUCGGGUGCCAA | 0.632 |
| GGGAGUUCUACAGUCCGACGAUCCUGCCUUUUGUGAUACUUCCUGUGCUCCCUCAGAGAGAAACGGAGUGACCUUUUGUCCUUUACCUGAUUGGCACUUCGCAGUCUAUCUCCCUGGGUAGCAGACGGCUGCUUGGAAUUCUCGGGUGCCAA | 0.307 |
| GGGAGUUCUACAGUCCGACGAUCUAUCUCAGCUUGCUGAGGGGCAGGGAGAGGGUCUCUUCCUCUGGGCAGCACUAUCUAGAUAGGUAAGUGGGGGCGGGGAAGGGUGCAUAGCUGUUUUAGCCGAGGGACUCUGGAAUUCUCGGGUGCCAA | 0.618 |
| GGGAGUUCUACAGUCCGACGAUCUAUUGUAGUUGGCUGUGCAUGGUACAAAUUUAUUAAUAUGAAGAAAUGCAAAAUGUAUUGCUUUUGAUAUUUCUAUUCUGAGAUGAACCAGUAGCAUGUAAUGCAACUGUUGGAAUUCUCGGGUGCCAA | 0.871 |
| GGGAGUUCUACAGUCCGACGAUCCCUGACCCCACCUAUCGUCUUCUGCUAAGGGACAGUACAGAAGCUGCUGUCUGGGCUGUAAAGUCUGGAAGGCAUUGGAACUUCUCUGUGGAGUGUAUUAGCAUUCAUCUUGGAAUUCUCGGGUGCCAA | 0.396 |

Study 3 — Structure (SMILES): O=C1NC(=O)/C(=C/c2ccc3nccnc3c2)S1; read-out: enzyme activity; action: inhibitor; concentration: 0.5 µM; baseline: control
| target | remaining activity [%] |
| --- | --- |
| MAP4K4 (Homo sapiens, UniProt O95819) | 80.9 |
| AXL (Homo sapiens, UniProt P30530) | 112 |
| SRMS (Homo sapiens, UniProt Q9H3Y6) | 96.6 |
| EPHB1 (Homo sapiens, UniProt P54762) | 93.4 |
| HIPK4 (Homo sapiens, UniProt Q8NE63) | 95 |
| BLK (Homo sapiens, UniProt P51451) | 99.4 |
| EPHA4 (Homo sapiens, UniProt P54764) | 96 |
| ABL1 (Homo sapiens, UniProt P00519) | 95.7 |
| PDPK1 (Homo sapiens, UniProt O15530) | 104 |
| HIPK2 (Homo sapiens, UniProt Q9H2X6) | 101 |
| WNK3 (Homo sapiens, UniProt Q9BYP7) | 85.8 |

Study 4 — target: CCNE1, cyclin fold, Cln2 fusion (human); technique: yeast growth competition, sequencing; medium: yeast; setting: strong parent motif; baseline: not given; reading: higher = stronger binding
Starting sequence: BRCA2 docking peptide (human); PSIKRNLLNEFDR
| Change | normalised enrichment score |
| --- | --- |
| D12S | 1.26 |
| N6A | -0.205 |
| L7V | -0.188 |
| R5K | 0.803 |
| N9H | 1.88 |
| K4L | 0.949 |
| L7S | -0.34 |
| L7G | -0.0172 |

Some of these lines once more (study 1):
| target | remaining binding |
| --- | --- |
| MET (Homo sapiens, UniProt P08581, M1250T) | 100% |
| MAP3K1 (Homo sapiens, UniProt Q13233) | 96% |
| HASPIN (Homo sapiens, UniProt Q8TF76) | 100% |
